Measurements of several laboratories.
Compare with care: the assays were run in different laboratories. Numbers after ± are the reported error.
Gamma carbonic anhydrase: Gamma carbonic anhydrase (Vibrio cholerae, UniProt Q9KVT1)
Oprm1: Mu-type opioid receptor (Oprm1, Mus musculus, UniProt P42866)
CES1: Liver carboxylesterase 1 (CES1, Homo sapiens, UniProt P23141)

Structure (SMILES) | tested on | assay | test system | setting | measurement | value
COc1cccc(NC(=O)NCc2cn(CCCS(N)(=O)=O)nn2)c1 | Gamma carbonic anhydrase | inhibitor |  |  | Ki | 9.4 µM
C=CCN1CCC2(C)c3cc(O)ccc3CC1C2C (single isomer, unassigned; (-)) | Tmem97 (Mus musculus, UniProt Q8VD00) | ligand displacement, radioligand |  | cell membranes | Ki | 6.72 µM
N#Cc1cc(C(=O)N[C@@H]2CC[C@@]3(O)[C@H]4Cc5cccc6c5[C@@]3(CCN4CC3CC3)[C@H]2O6)ccn1 | Oprm1 | ligand displacement, radioligand |  | cell membranes | Ki | 0.0583 µM
NS(=O)(=O)CCCn1cc(CNC(=O)Nc2ccc(C(F)(F)F)cc2)nn1 | Gamma carbonic anhydrase | inhibitor |  |  | Ki | 17.3 µM
C[C@H]1CN(C2CCCCCCC2)CC[C@@]1(C)c1cccc(O)c1 | OPRM1 (Homo sapiens, UniProt P35372) | ligand displacement, radioligand |  |  | Ki | 0.516 µM
NS(=O)(=O)CCCn1cc(CNC(=O)Nc2ccc(F)cc2)nn1 | Gamma carbonic anhydrase | inhibitor |  |  | Ki | 12.6 µM
NC(N)=Nc1ccc2[nH]c3c(c2c1)C[C@@]1(O)[C@H]2Cc4ccc(O)c5c4[C@@]1(CCN2CC1CC1)[C@H]3O5 | OPRK1 (Homo sapiens, UniProt P41145) | ligand displacement, radioligand |  | cell membranes | Ki | 0.00067 µM
CCCc1cc(O)c2c(c1)OC(C)(C)[C@@H]1CC=C(C)C[C@@H]21 | Cnr1 (Rattus norvegicus, UniProt P20272) | ligand displacement, radioligand |  |  | Ki | 0.0463 µM
COc1ccc(OCc2cn(CCCCS(N)(=O)=O)nn2)cc1 | Gamma carbonic anhydrase | inhibitor |  |  | Ki | 40.3 µM
[Cl-].[Cl-].[Mg+2] | ATP phosphoribosyltransferase (Mycobacterium tuberculosis, UniProt P9WMN1) | enzyme activity, inhibitor |  | 200 mM KCl, with: saturating substrates | Ki | 23300 ± 8600 µM
C=CCN1CCC2(C)c3cc(O)ccc3CC1C2C (single isomer, unassigned; (-)) | Sigmar1 (Mus musculus, UniProt O55242) |  |  |  | Ki | 2.15 ± 0.336 µM
CN[C@@](C)(C[18F])C(=O)O | A549 tumour model |  | host not given, blood | 15 min, tumour-bearing | tracer uptake | 3.2 %ID/g
COc1ccc(C[C@H](NC[C@H](O)c2cc(O)cc(O)c2)C(C)C)cc1 | ADRB2 (Homo sapiens, UniProt P07550) | binding |  |  | Ki | no binding
O=C(N[C@@H]1CC[C@@]2(O)[C@H]3Cc4cccc5c4[C@@]2(CCN3CC2CC2)[C@H]1O5)c1ccnc(Br)c1 | Oprm1 | ligand displacement, radioligand |  | cell membranes | Ki | 0.0245 µM
C=CCN1CCC2(C)c3cc(O)ccc3CC1C2C (single isomer, unassigned; (+)) | Tmem97 (Rattus norvegicus, UniProt Q5U3Y7) | ligand displacement, radioligand |  |  | Ki | > 10 µM
CCCCn1cc(C(=O)c2cccc3ccccc23)c2c(O)cccc21 | Cnr1 (Mus musculus, UniProt P47746) | ligand displacement, radioligand |  | cell membranes | Ki | 0.0141 µM
NS(=O)(=O)CCCn1cc(COc2ccccc2)nn1 | Gamma carbonic anhydrase | inhibitor |  |  | Ki | 37.8 µM
CN[C@@H](C)C/C=C/c1cncc(OC)c1 | CHRNA1/CHRNG/CHRND (Homo sapiens, UniProt P02708+P07510+Q07001) | binding, radioligand binding | TE-671, cell membranes | with: [3H]epibatidine | Ki | > 100 µM
CC(C)=CCN1CCC2(C)c3cc(O)ccc3CC1C2C (single isomer, unassigned; (-)) | Tmem97 (Rattus norvegicus, UniProt Q5U3Y7) | binding | rat liver P2 membranes | σ1 blocked, with: [3H]DTG 5 nM | Ki | 0.0581 ± 0.004 µM
CCN(C(=O)[C@@H]1C=C2c3cccc4[nH]cc(c34)C[C@H]2N(C)C1)C1CC1 | Histamine H3 receptor (Cavia porcellus, UniProt Q9JI35) |  |  |  | Ki | > 10 µM
CC[C@@H]1CN2CCc3c([nH]c4cccc(OC)c34)[C@H]2C[C@@H]1/C(=C\OC)C(=O)OC | CES1 | enzyme activity, inhibitor |  |  | Ki | 8.6 µM
CNC(C)C(=O)c1ccccc1 (stereo not shown) | SLC18A2 (Homo sapiens, UniProt Q05940) | ligand displacement, radioligand |  | cell membranes | Ki | > 1000 µM
COc1ccc(OCc2cn(CCCS(N)(=O)=O)nn2)cc1 | Gamma carbonic anhydrase | inhibitor |  |  | Ki | 25.6 µM
C=C[C@H]1CN2CCc3c([nH]c4cccc(OC)c34)[C@@H]2C[C@@H]1/C(=C\OC)C(=O)OC | CES1 | reversible inhibitor |  | with: oseltamivir substrate | Ki | 26.1 ± 7.34 µM
O=C(c1cccc2ccccc12)c1cn(CCCCO)c2ccccc12 | Cnr1 (Mus musculus, UniProt P47746) | ligand displacement, radioligand |  | cell membranes | Ki | 0.224 µM
